{"data": "Results collected from several papers", "cell line": "HepG2", "note": "Compare with care: the assays were run in different laboratories. ± gives the spread as reported."}
{"Compound": "CC1CCC2C(C)C(CCCOC(=O)C(Cc3ccc(N(CCCl)CCCl)cc3)NC(=O)OC(C)(C)C)OC3OC4(C)CCC1C32OO4 (centres unmarked)", "read-out": "cell growth or viability", "technique": "CCK-8", "IC50": "0.76 µM"}
{"Compound": "O=C1C(Cl)=C(Cl)C(=O)c2ccccc21", "read-out": "cell growth or viability", "technique": "MTT", "IC50": "110 µM"}
{"Compound": "Cc1ccc(C(C)C)cc1.Cc1ccc(C(C)C)cc1.Cc1ccc(C(C)C)cc1.Cc1ccc(C(C)C)cc1.O=S(=O)(O)C(F)(F)F.O=S(=O)(O)C(F)(F)F.O=S(=O)(O)C(F)(F)F.O=S(=O)(O)C(F)(F)F.c1ccc2c3c4ccccc4c(c2c1)-c1cn(nn1)-c1cc[n+](cc1)[Ru-]1[O]c2ccc4c5c(ccc(c25)=[O+]1)=[O+][Ru-]([O]4)[n+]1ccc(cc1)-n1cc(nn1)-c1c2ccccc2c(c2ccccc12)-c1cn(nn1)-c1cc[n+](cc1)[Ru-]1[O]c2ccc4c5c(ccc(c25)=[O+]1)=[O+][Ru-]([O]4)[n+]1ccc(cc1)-n1cc-3nn1", "read-out": "cell growth", "technique": "MTT", "time": "24 h", "setting": "20 µM preincubated in medium 0 h at 37 °C", "IC50": "2 ± 0.01 µM"}
{"Compound": "O=C1C=CC(=O)c2c(O)cccc21", "read-out": "cell growth or viability", "technique": "MTT", "IC50": "32.4 µM"}
{"Compound": "Nc1c(C(=O)N2CCCC2)sc2nc(-c3ccccc3)ccc12", "read-out": "cell growth or viability", "time": "72 h", "IC50": "> 100 µM"}
{"Compound": "CC1CCC2C(C)C(OC(=O)CCC(=O)OC3C(C)OC(n4cc(F)c(=O)[nH]c4=O)C3OC(=O)CCC(=O)OC3OC4OC5(C)CCC6C(C)CCC(C3C)C46OO5)OC3OC4(C)CCC1C32OO4 (centres unmarked)", "read-out": "cell growth or viability", "technique": "CCK-8", "IC50": "> 50 µM"}
{"Compound": "Cc1cc(Oc2nc(N3CC[C@@H](c4ccncc4)C3)ncc2F)[nH]n1", "read-out": "cell proliferation", "matrix": "liver cancer", "IC50": "42.7 µM"}
{"Compound": "Cc1ccc2c(Cl)cc(Cl)c([O-])c2n1.Cc1ccc2c(Cl)cc(Cl)c([O-])c2n1.[Co+2].c1cnc2c(c1)c1nccnc1c1cccnc12", "read-out": "cell growth or viability", "technique": "MTT", "time": "48 h", "IC50": "3.69 µM"}
{"Compound": "C[C@H]1[C@H](OC(=O)CCC(=O)OCCC2CCN(CC(=O)Nc3ccc([N+](=O)[O-])c(C(F)(F)F)c3)CC2)O[C@@H]2O[C@@]3(C)CC[C@H]4[C@H](C)CC[C@@H]1[C@@]24OO3", "read-out": "cell growth or viability", "technique": "CCK-8", "IC50": "> 50 µM"}
{"Compound": "c1cnc2c(c1)c1nccnc1c1cccnc12", "read-out": "cell growth or viability", "technique": "MTT", "time": "48 h", "IC50": "> 50 µM"}
{"Compound": "Cc1ccc(C2=CC(C)(C)Oc3ccc(-c4ccc(-c5ccc(C(=O)O)cc5)[nH]4)cc32)cc1", "IC50": "27.5 µM"}
{"note": "For quick reference, copied from above:"}
{"Compound": "O=C1C=CC(=O)c2c(O)cccc21", "read-out": "cell growth or viability", "technique": "MTT", "IC50": "32.4 µM"}
{"Compound": "Nc1c(C(=O)N2CCCC2)sc2nc(-c3ccccc3)ccc12", "read-out": "cell growth or viability", "time": "72 h", "IC50": "> 100 µM"}
